Experimental data from different studies.
Parts stem from different laboratories: compare values within a part only. Changes are numbered by the printed parent chain.

Sample 1
Target: RING finger protein unkempt homolog, zinc fingers 1-6, GST-SBP tag (UNK, Homo sapiens, UniProt Q9C0B0, residues 30-357)
Technique: RNA Bind-n-Seq
Form: RNA
Sample: in vitro
Tested at: not given
Notes: RNA with constant flanks, ends assumed
Reference: input RNA pool
Reading: higher = stronger binding
Quantity: bound/input enrichment
Shared flanks, not repeated: GGGAGUUCUACAGUCCGACGAUC … CAACAGAGGAUUGAGCAUCA
Construct (chain): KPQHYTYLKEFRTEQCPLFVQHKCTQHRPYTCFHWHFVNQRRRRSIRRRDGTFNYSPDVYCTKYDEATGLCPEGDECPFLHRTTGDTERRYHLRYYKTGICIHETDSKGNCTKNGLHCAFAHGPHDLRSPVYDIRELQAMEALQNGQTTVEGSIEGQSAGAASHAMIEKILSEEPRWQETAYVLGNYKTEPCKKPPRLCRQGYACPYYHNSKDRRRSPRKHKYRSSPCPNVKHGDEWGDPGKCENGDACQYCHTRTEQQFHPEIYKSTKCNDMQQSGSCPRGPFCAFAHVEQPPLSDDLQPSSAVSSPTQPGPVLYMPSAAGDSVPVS
GCUGGCUUCUUUGGACUCCCUAUAUGAUUGAUGAUGUGAAAACCUAAAUUACUUGCAGCACCGUAUUACUUCUUUGAUGUUCUCAUUAGCAUAAUGUUAUUUUUGAAAAGGAAAGAUACU: 1.61 ratio
GGUGAGCUUCAUUUUCUCCAAAUUGGAGGAACCUGUGAUGAUAUUGAUGAAGCUGAUAUACCCGUGGAUGGAUCUCUUUCUAAAGGAAUAGAACCAUCUUCAGAAGGUUCCAAACCUUUA: 0.123 ratio
UAUUGUACCUCUACUCUGCGUCACUUCUUGCCUCUGUUAGAAAAAAGUCAAGGAGAAGAUGCCGAAGAUGACCACAGAGCAGAACUGCUAAAACAGCUGGGAGACUACAGGUUCUCUGGA: 0.246 ratio
CGCUGGCCCAAGCUGAUGGACUCUGAUGGCCUCCAUCUCUCAGGCACGUGUGCCUUCUCUCCGUCCCUGUUUUCGGGAUGUUAUGAAUCUCAGUACUGUGGUUUGAAAGCACCAGCUUUG: 0.0844 ratio
UUGAGCAUACAUAUACAAUGUGUUUCAAAUGCUGCUUGUAAAAUUAAACCAUCAUCCCGAACCGAGUUAAUUUAUUAUAAUCAAGCUACAAAUAGGUUUUCUUAAACCAGAGAUGCACUG: 0.244 ratio
AUCUAUGCUAACCUGUCUGAUGAAAAGGCUUUCGUGUUUUCAGUCGCCUUGGCAGAAAUAAACCGAAAAAUUAUCAAUCAAAGACUUAUUCUCUGAUACUUGUUUGCAAAAUCUGCUGAA: 0.124 ratio
GUUCUUAAAGAUGUGGGAUUGAAAAAAGAAGAUAUUGCAAUGUGGGAAGUAAAUGAAGCCUUCCGUCUGGUUGUACUAGCAAACAUUAAAAUGUUGGAGAUUGAUCCCCAAAAAGUGAAU: 0.315 ratio
AUCAGUGUCGGACGCUAACACCACUUUCGCCCCUUCCCCGCCCCACACACCCUGUCUUCCCACCGGAGCAUUACCCUCUGUUGUCCAUCUGCCAUCAGAUGUCCCCACUGAAGCAUGCAU: 0.414 ratio
UAAAUCCAUUUGUAAGCAUUUAUCCCAUAUAUUUUAAAUUCAAGAAAAAUUGUGUUUAUCUUCCGAAUUUUGUAUUCAAUACUUUAUGUACUAUGUGACUCAUGCUUCUGGAUAAAUAAA: 1.61 ratio
AAGUGGUUGCUGCAGAAAGACAAAGACAGGAGGAAGGAGGUUAAACUGAACGAGCGCAUUACCGCUACUUCCCAAGGACUACUGAUUCGCUCUGUUCAAGAUUCUGACCAAGGACUCUAC: 0.223 ratio
UGUAGAUUUAUCCUAAAUUUGCUGUAGCAGUGGGGAAGAGGGACGGAUAUUUUUAAUUGAUCCGUGUUUUUUUCCUCACAUUUGACAUGACUGAUAACAGAUAAUUAAAAAAAGAGAAUA: 0.276 ratio

Sample 2
Target: Prothrombin, mature alpha-thrombin (F2, Homo sapiens, UniProt P00734)
Technique: aptamer microarray, sandwich
Form: DNA with 2'F-ANA
Sample: in vitro
Tested at: 200 nM
Notes: whole 15-mer aptamer, many near background
Together with: Cy3 exosite-II aptamer, 400 nM
Reading: higher = stronger binding
Quantity: mean fluorescence intensity
Strand: GGTTGGTGTGGTTGG
2'F-ANA at 1 3 4 6 7 9 11 12 13 14: 79.4 a.u.
2'F-ANA at 5 7 8 9 10 13: 44.7 a.u.
2'F-ANA at 2 5 6 9 11 13 15: 52.8 a.u.
2'F-ANA at 3 5 9 10 11 13 14 15: 50.3 a.u.
2'F-ANA at 2 4 5 7 8 9 11 12 13 14: 49.5 a.u.
2'F-ANA at 1 3 8 9 13 15: 247 a.u.
2'F-ANA at 4 6 7 8 10 11 13 15: 67.7 a.u.
2'F-ANA at 1 3 6 8: 355 a.u.
2'F-ANA at 1 4 5 6 7 11 14: 52.5 a.u.
2'F-ANA at 2 4 6 7 9 12 14: 103 a.u.
2'F-ANA at 1 3 8 10 11 13 15: 73.3 a.u.
2'F-ANA at 1 2 3 7 11 13 15: 176 a.u.
2'F-ANA at 1 4 5 6 7 9 11 14: 45.7 a.u.
2'F-ANA at 1 2 3 5 6 9 10 15: 47.4 a.u.
2'F-ANA at 3 4 6 9 10 13 14: 193 a.u.
2'F-ANA at 3 5 11 12 14 15: 57.3 a.u.
2'F-ANA at 1 3 6 8 10 11 12 15: 93.4 a.u.
2'F-ANA at 1 9 12 13 15: 315 a.u.
2'F-ANA at 1 2 3 4 5 7 9 10: 59.4 a.u.
2'F-ANA at 2 3 6 8 11 12 13: 801 a.u.
2'F-ANA at 2 3 5 6 8 9 10 11 12 14 15: 47.9 a.u.
2'F-ANA at 1 7 8 9 10 11 13: 62.5 a.u.
2'F-ANA at 2 4 6 8 9 13 15: 169 a.u.
2'F-ANA at 1 2 3 4 5 6 7 8 10 11 12 14 15: 50.5 a.u.
2'F-ANA at 1 2 3 7 10 11 13 14 15: 53 a.u.

Sample 3
Target: ABI1, truncated, D143A, DHFR fusion (Arabidopsis thaliana)
Technique: DHFR PCA, deep sequencing
Sample: yeast
Notes: methotrexate growth selection, single substitutions
Together with: (+)-ABA 0.39 µM
Reference: wild-type fitted maximum
Reading: higher = stronger binding
Quantity: relative binding score
Parent: PYL1, truncated, DHFR fusion (Arabidopsis thaliana); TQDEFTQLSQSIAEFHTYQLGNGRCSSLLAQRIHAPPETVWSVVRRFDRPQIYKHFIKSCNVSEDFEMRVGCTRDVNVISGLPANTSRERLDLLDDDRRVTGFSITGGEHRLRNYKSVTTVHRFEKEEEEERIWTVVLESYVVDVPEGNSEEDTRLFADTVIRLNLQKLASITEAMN; partner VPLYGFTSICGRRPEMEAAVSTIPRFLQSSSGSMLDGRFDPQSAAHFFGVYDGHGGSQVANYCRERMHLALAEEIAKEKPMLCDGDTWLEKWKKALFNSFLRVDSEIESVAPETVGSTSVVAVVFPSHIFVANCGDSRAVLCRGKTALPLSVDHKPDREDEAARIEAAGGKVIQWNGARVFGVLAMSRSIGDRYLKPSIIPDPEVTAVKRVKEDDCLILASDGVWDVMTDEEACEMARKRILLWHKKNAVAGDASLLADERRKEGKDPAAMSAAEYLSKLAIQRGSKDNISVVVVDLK
L164E: -6.08%
L91Y: 11.6%
G71N: -3.01%
F103Q: -9.51%
G108H: -3.56%
A35L: -6.93%
D65V: 11.9%
N85D: 21.7%
R24T: 30.7%
L8Y: 26.3%
R163Y: -29.5%
P83M: -4.28%
G102D: 12.2%
K116Q: 23.9%
E125C: 49.3%
G21A: 45.8%
L82F: 69.8%

Sample 4
Target: Histone acetyltransferase KAT6A, both winged helices, GST fusion (KAT6A, Homo sapiens, UniProt Q92794, residues 1-181)
Technique: protein binding microarray
Form: double-stranded DNA, one strand shown
Sample: in vitro
Tested at: not given
Notes: 8-mer, flanks averaged, mean of 2 arrays, mostly near background
Reference: not given
Reading: higher = stronger binding
Quantity: E-score
Residues (chain): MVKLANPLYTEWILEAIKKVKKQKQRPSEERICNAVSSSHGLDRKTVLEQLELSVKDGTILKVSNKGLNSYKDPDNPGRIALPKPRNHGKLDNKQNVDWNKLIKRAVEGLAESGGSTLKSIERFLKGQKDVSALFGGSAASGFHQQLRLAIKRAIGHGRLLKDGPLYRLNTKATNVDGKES
ACTTAGAA: -0.0944
GTCGCAGA: 0.175
CTGGCGAC: -0.0191
AACTCGGC: 0.115
CGCATTAA: 0.136
CCTCTGTA: -0.114
CAATCGAC: -0.0192
CAGCCCTC: -0.239
CTTGCCCC: -0.147
TGTCTTAA: 0.0116
GCGCAGAA: 0.207
ACGGACGG: 0.26
CCGGGGCG: 0.216
GCATTAAC: 0.0278
GCAATGGA: -0.0264
CCCAGGTA: -0.218

Sample 5
Target: Ras GTPase-activating protein-binding protein 1, RRM domain (G3BP1, Homo sapiens, UniProt Q13283)
Sequence of UniProt Q13283 (whole entry, looked up): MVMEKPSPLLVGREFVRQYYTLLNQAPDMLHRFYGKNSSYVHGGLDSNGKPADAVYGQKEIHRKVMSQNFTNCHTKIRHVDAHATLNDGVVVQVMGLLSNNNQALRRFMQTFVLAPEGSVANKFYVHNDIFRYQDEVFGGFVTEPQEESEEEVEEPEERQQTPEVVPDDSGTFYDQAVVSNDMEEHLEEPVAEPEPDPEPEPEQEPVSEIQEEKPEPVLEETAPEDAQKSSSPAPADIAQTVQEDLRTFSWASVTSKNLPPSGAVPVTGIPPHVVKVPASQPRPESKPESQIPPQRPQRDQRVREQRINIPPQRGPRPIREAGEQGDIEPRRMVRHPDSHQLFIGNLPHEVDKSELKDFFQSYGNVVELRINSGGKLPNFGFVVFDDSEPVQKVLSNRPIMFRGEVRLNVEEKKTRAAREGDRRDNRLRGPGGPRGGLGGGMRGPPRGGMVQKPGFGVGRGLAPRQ
Technique: RNA Bind-n-Seq
Form: RNA
Sample: in vitro
Tested at: 1 µM
Notes: whole 134-nt RNA, ends assumed
Together with: 150 mM KCl
Reference: input library
Reading: higher = stronger binding
Quantity: log2 enrichment
Shared flanks, not repeated: GGGAGUUCUACAGUCCGACGAUC … UGGAAUUCUCGGGUGUCAAGG
GUCCUGUGCUACACAUCGUAUGUACCGAAUCAAACCCCCAAACCCCCAAAUUUUUAAAAAAGUAUUAUGUUACGCCGUUCGGAUCUGCAC: -0.19
UCAAGUCCUGUGCUACACAUCGUAUGUACCGAAUCGGGAAGGGGAAGGGAAGGGAAAGUAUUAUGUUACGCCGUUCGGAUCUGCACUUCC: 1.12
CUCCUGGAGUGGAUCCGGCGCACCAUCCCCUGGCUGGAGGACCGUGUGCCCCAAAAGACUAUCCAGGAGAUGCAGCAGAAGCUGGAGGAC: -0.585
AGUCCUGUGCUACACAUCGUAUGUACCGAAUCGGGGUGGGGUGGGGUUUUUUUGGGGAAAGUAUUAUGUUACGCCGUUCGGAUCUGCACU: 0.585
CCUCAAGUCCUGUGCUACACAUCGUAUGUACCGAAUCGGGGCGGCGGGGCGGAAAGUAUUAUGUUACGCCGUUCGGAUCUGCACUUCCAG: -0.302
UCGGACGCCGCCAACCUGCACGAGUUCCACGCGGACCUGCGCUCAUGCUUUGCACCCCAGCACAUGGCCAUGCUGUGUAGCCCCAUCCUC: 0.109
AGUCCUGUGCUACACAUCGUAUGUACCGAAUCGGGGUUUUGGGGUUUUGGUUUUGGGAAAGUAUUAUGUUACGCCGUUCGGAUCUGCACU: -0.302
GUCCUGUGCUACACAUCGUAUGUACCGAAUCGGGGUUUUUGGUUUUUGGGUUUUUGGGGAAAGUAUUAUGUUACGCCGUUCGGAUCUGCA: -0.191
AGUCCUGUGCUACACAUCGUAUGUACCGAAUCGGGGAGGGGAAAAAAAGGGGUGGGGAAAGUAUUAUGUUACGCCGUUCGGAUCUGCACU: 0.884
GUCCUGUGCUACACAUCGUAUGUACCGAAUCGGGGCCCCCCGGCCCCCCGGCCCCCCGGAAAGUAUUAUGUUACGCCGUUCGGAUCUGCA: -0.397
AAGUCCUGUGCUACACAUCGUAUGUACCGAAUCGGGGAAAAGGAAAAGGGAAAAGGAAAGUAUUAUGUUACGCCGUUCGGAUCUGCACUU: -0.178
CACAGACAACACGCACCCACACAGACAAAGAGGGAAGGGGUUGGGAUGGGGACAGGGUGCACAGCAGGGCGGGGUAGGACCCCAGCCCCU: -0.162
CAAGUCCUGUGCUACACAUCGUAUGUACCGAAUCGGGAGGGAGGGAAAAAAAGGGAAAGUAUUAUGUUACGCCGUUCGGAUCUGCACUUC: 0.461
UGGGAGGUGGAUUUUGUUUAUUUUUUUAGCUCAGUUCCAGGGGUGGGAAUUUUUUUUUAAUAUGUGUCAUGAAUAAAGUUGUUUUUGAAA: 1.42

Sample 6
Target: PABPC1L2, full length, GST fusion (mouse, UniProt A0ABA7IW68)
Technique: RNAcompete
Form: RNA
Sample: in vitro
Tested at: 20 nM
Notes: 7-mer, probes averaged, single round
Reference: mean of 7-mers
Reading: higher = stronger binding
Quantity: 7-mer Z-score
Target sequence (chain): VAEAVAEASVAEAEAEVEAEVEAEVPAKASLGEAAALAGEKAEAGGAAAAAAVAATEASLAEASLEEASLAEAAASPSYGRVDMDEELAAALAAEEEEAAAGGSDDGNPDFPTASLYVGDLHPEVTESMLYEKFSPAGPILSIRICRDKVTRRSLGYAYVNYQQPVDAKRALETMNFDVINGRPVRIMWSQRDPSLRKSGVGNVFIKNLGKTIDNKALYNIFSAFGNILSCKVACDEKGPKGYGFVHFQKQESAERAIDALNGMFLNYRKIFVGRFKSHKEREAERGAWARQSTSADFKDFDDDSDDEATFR
CAUGUAA: 0.258
CAUGUCA: -0.135
UUGCAUA: -0.168
CUGAUCG: -0.249
UGCCACC: -0.2
UGGUCCA: -0.144
CCGUUGG: -0.191
ACUUACA: 0.00617
GUAGGUA: -0.0283
AUAUCGC: -0.139
AGUGCAC: -0.182
ACACGUU: -0.275
UCAAGCG: -0.00289
CGCCCCC: -0.508
UUUCCAG: -0.378
ACAGAGU: -0.0319
AUUAUGC: -0.161
CAGUCUC: -0.0663
UCGUGUU: -0.51
UACGUUU: -0.367
CCUUUGC: -0.432
CAAGAUG: 0.0696
AGUCGAU: -0.34
CGUACAA: 0.104
CUUUAAC: -0.132

A few entries again (sample 3):
R24T: 30.7%
E125C: 49.3%
R163Y: -29.5%
A35L: -6.93%
G21A: 45.8%
D65V: 11.9%
N85D: 21.7%
F103Q: -9.51%
L91Y: 11.6%
L164E: -6.08%
G71N: -3.01%
L8Y: 26.3%
K116Q: 23.9%
G108H: -3.56%
L82F: 69.8%
G102D: 12.2%
P83M: -4.28%
